Results pooled from the literature.
Each numbered part is a random draw from the data of one study; scales do not carry over between parts. Values joined by “and” are separate records of one study, mostly repeats; a detail may differ. ± gives the spread as reported.

Sample 1
Compound: Cn1cc(-c2cccc(CN3CCC4(CC3)COc3c4ccc4c3CN([C@H]3CCC(=O)NC3=O)C4=O)c2)cn1
| host | medium | route | dose | setting | MRT(0-t) |
| --- | --- | --- | --- | --- | --- |
| cynomolgus monkey | plasma | intravenous | 1 mg/kg |  | 4.76 h |
| cynomolgus monkey | plasma | oral | 3.02 mg/kg |  | 8.03 h |
| rat |  | intravenous | 1 mg/kg | approximate dose | 1.99 h and 1.95 h |

Sample 2
Target: Sodium-dependent neutral amino acid transporter B(0)AT1 (SLC6A19, Homo sapiens, UniProt Q695T7)
Sequence of UniProt Q695T7 (whole entry, looked up): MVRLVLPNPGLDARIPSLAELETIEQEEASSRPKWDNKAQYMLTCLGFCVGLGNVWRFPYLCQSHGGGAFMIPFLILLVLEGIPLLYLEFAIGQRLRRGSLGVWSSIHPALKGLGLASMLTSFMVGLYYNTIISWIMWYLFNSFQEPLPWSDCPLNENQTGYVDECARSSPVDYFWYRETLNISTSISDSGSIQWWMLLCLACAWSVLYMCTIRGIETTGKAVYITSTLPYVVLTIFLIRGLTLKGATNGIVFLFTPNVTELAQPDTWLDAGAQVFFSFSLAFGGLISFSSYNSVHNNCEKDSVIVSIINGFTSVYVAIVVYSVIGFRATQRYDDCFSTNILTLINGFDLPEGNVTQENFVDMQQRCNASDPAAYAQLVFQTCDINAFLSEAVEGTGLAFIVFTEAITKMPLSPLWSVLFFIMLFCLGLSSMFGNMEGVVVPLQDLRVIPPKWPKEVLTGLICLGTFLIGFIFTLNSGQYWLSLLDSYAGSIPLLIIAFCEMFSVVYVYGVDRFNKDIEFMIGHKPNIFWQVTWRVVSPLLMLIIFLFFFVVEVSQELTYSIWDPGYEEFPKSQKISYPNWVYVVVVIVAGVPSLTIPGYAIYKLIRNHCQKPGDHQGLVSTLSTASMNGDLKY
Action: inhibitor
Method: FLIPR membrane potential
Cell line: CHO-BC cells
| SMILES | IC50 [µM] |
| --- | --- |
| CNC(=O)COc1cc(C)c(Cl)c(C)c1 | 26.7 ± 8.6 |
| CCNC(=O)COc1cc(C)c(Cl)c(C)c1 | 2.66 ± 0.405 |
| Cc1cc(OCC(=O)NC(C)C)ccc1Cl | 1.63 ± 0.168 |
| CCCNC(=O)COc1cc(C)c(Cl)c(C)c1 | 4.91 ± 0.628 |
| CC(C)NC(=O)COc1ccc(Cl)cc1 | 36.4 ± 33.3 |
| CC(C)NC(=O)COc1ccc(I)cc1 | 5.3 ± 0.551 |
| CC(C)NC(=O)COc1ccc(Br)cc1 | 12.5 ± 3.31 |

Sample 3
SMILES: NC/C(=C\F)COc1ccc(Cl)c(-c2cc(=O)[nH]c(=S)n2CC(N)=O)c1
Target: Myeloperoxidase (MPO, Homo sapiens, UniProt P05164)
Sequence of UniProt P05164 (whole entry, looked up): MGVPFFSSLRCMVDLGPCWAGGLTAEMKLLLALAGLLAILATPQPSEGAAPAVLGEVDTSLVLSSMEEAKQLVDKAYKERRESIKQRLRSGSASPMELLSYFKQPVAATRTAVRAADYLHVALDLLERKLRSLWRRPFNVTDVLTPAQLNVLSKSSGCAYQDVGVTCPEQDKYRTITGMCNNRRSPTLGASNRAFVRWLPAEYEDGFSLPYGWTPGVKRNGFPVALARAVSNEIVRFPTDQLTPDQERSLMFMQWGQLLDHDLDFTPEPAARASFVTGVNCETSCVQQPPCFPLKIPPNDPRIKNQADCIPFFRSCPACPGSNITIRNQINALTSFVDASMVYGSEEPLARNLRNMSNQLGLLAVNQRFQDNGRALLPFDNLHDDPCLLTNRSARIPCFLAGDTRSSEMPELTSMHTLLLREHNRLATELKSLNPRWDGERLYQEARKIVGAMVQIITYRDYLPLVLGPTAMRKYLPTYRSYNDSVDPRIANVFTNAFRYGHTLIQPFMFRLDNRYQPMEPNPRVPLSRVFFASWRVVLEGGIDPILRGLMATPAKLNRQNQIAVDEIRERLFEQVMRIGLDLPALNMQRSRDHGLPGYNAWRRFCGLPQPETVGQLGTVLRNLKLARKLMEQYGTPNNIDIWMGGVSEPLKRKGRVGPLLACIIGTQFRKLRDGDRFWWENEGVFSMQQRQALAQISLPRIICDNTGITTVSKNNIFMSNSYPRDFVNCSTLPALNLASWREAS
Effect on: enzyme activity
| action | method | concentration | inhibition |
| --- | --- | --- | --- |
| inhibitor | fluorescence | 5 µM | 93.8% |
| inhibitor | fluorescence | 15 µM | 98% |
| inhibitor | fluorescence | 4.6 nM | -11.5% |
| inhibitor | fluorescence | 13.7 nM | -5.36% and -0.652% |
|  |  | 30 µM | 98.2% |
| inhibitor | fluorescence | 30 µM | 98.2% |
| inhibitor | fluorescence | 1.5 nM | -15.9% and -11.8% |
| inhibitor | fluorescence | 0.1852 µM | 53.6% |

Further values, each from its own experiment
| SMILES | target or system | assay | system | conditions | scale | endpoint | result |
| --- | --- | --- | --- | --- | --- | --- | --- |
| C#CCN1C(=O)C(O)(C(=O)O)Oc2cc(F)ccc21 (stereo not drawn) | Arabidopsis thaliana | root length | Col-0 | 100 µg/mL, 7 days, seed germination, dark |  | inhibition | 99.2% |
| Cc1cc(-c2cnc(N)c3c(-c4ccc5scnc5c4)csc23)n(C)n1 |  | CCK-8 | L929, mouse | 12.5 µM, MEM with 10% FBS, together with: zVAD |  | viability | 56.9% and 63.3% and 59.6% and 58% |
| FC(F)(F)c1ccc(C2=NOC3(NC(c4ccccc4)=NO3)N2c2ccccc2)cc1 (stereo not drawn) | Plasmodium falciparum | LC-MS | infected erythrocytes, 3D7 | 10 µM, 5 h | baseline: DMSO | N-carbamoyl-L-aspartate level | 12 fold |
